Experimental data gathered from unrelated publications.
Numbered parts are unrelated; each lists some results of a single study. Values joined by “and” are separate records of one study, mostly repeats; a detail may differ. Positions count from the first letter of the parent shown.

Block 1 — target: CCNB3, cyclin fold, Cln2 fusion (human); technique: yeast growth competition, sequencing; matrix: yeast; notes: weak parent motif; baseline: not given; reading: higher = stronger binding
Starting sequence: viral docking peptide; KKVKRRLFETREL; partner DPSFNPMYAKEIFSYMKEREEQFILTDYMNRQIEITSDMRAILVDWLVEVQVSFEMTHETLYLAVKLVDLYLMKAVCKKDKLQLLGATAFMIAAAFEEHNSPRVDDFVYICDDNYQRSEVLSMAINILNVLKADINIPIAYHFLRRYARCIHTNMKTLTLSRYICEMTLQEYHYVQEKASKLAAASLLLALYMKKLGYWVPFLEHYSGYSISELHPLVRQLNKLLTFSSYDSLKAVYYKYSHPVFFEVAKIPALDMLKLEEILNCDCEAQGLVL
Substitution	normalised enrichment score
E9A	0.28
R11A	0.596
R5A L7A	0.29
L13A	0.658
V3A	0.277
K1A	1.05
F8L	0.259
L7A	-0.184

Block 2 — target: tungstate, free oxyanion; technique: microfluidic competitive inhibition; matrix: in vitro, cell-free expressed; tested at: not given; reading: lower = stronger binding
Notes: derived from inhibition constants, unchanged parent 2230 nM
Starting sequence: PafA, mature enzyme, eGFP fusion (Elizabethkingia meningoseptica, UniProt Q9KJX5); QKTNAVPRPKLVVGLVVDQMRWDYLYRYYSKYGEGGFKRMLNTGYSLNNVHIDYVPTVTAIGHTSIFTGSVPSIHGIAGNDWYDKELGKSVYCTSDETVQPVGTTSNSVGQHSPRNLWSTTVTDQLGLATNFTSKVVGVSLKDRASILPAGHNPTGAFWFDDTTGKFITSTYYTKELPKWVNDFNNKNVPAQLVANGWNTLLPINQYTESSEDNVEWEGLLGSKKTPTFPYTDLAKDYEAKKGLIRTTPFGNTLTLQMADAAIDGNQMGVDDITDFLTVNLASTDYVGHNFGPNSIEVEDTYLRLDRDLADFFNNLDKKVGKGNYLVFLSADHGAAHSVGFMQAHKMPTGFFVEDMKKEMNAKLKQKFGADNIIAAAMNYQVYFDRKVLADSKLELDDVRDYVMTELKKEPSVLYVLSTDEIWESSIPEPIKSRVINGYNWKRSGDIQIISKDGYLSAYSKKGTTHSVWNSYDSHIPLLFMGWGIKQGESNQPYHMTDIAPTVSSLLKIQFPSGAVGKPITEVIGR
Substitution	oxyanion analog dissociation constant
G79V	681 nM
M496G	1.35 µM
E354V	2.07 µM
T133V	2.29 µM
S513V	938 nM
T94V	1.49 µM
K367G	1.94 µM
E97G	2.02 µM

Mixed results
SMILES	tested on	test	system	setting	how to read	endpoint	result
CN(N=O)C(=O)N[C@@H]1[C@@H](O)[C@H](O)[C@@H](CO)O[C@@H]1O	–	–	mice, STZ diabetic neuropathy	dose not given, 14 days after STZ	–	body weight	33.8 g and 34 g and 34.7 g and 37.4 g
CC(=O)OCC[N+](C)(C)C	HEK-293T	pseudovirus infection, FDA-approved drug library counter-screen	VSV pseudotyped with VSV-G	10 µM, 16 h	baseline: vehicle-treated	GFP-positive cells	117%

Some of these lines once more (block 1):
Substitution	normalised enrichment score
E9A	0.28
